Experimental data collected from several papers.
Several values in a cell are separate wells, animals, samples, runs or records. Numbers after ± are the reported error.
PPARG: Peroxisome proliferator-activated receptor gamma (PPARG, Homo sapiens, UniProt P37231)
Chain of UniProt P37231 (whole entry, looked up): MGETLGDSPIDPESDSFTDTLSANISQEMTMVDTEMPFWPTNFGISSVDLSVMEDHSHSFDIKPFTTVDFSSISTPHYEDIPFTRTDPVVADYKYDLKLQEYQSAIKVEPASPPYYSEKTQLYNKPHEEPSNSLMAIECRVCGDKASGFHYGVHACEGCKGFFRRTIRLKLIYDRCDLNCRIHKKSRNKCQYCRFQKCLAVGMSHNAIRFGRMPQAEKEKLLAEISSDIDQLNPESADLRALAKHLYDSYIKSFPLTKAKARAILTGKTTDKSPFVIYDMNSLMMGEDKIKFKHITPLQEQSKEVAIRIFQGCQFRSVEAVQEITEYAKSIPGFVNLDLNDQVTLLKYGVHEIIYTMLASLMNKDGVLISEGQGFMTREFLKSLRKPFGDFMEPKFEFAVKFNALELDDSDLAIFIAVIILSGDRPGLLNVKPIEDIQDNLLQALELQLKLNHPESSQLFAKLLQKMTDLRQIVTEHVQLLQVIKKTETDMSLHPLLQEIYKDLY
G-protein coupled receptor 39: G-protein coupled receptor 39 (Mus musculus, UniProt Q5U431)
Chain of UniProt Q5U431 (whole entry, looked up): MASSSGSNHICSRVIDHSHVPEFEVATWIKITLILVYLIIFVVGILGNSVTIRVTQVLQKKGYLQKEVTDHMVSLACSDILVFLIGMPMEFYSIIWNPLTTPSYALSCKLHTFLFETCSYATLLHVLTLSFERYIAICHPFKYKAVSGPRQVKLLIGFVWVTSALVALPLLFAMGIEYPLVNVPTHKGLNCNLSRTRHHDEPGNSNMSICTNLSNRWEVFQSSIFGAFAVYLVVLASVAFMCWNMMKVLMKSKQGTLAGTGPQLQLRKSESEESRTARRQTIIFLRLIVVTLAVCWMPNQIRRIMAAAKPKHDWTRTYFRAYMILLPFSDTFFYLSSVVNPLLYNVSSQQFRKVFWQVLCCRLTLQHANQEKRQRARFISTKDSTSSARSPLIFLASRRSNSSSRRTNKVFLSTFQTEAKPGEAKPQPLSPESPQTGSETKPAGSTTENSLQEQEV
PPARG ligand-binding domain: Peroxisome proliferator-activated receptor gamma, ligand-binding domain (PPARG, Homo sapiens, UniProt P37231)
Rhomboid protease AarA: Rhomboid protease AarA (Providencia stuartii, UniProt P46116)
Chain of UniProt Q9SZU7 (whole entry, unmodified, looked up): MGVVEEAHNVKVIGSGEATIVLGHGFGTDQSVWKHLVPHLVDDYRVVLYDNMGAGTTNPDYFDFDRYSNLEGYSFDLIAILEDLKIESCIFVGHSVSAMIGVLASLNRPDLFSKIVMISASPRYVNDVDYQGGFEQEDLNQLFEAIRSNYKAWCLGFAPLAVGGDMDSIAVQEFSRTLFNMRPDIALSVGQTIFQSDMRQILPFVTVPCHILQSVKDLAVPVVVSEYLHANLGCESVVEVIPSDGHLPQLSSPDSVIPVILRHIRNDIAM
Chain of UniProt P46116 (whole entry, looked up): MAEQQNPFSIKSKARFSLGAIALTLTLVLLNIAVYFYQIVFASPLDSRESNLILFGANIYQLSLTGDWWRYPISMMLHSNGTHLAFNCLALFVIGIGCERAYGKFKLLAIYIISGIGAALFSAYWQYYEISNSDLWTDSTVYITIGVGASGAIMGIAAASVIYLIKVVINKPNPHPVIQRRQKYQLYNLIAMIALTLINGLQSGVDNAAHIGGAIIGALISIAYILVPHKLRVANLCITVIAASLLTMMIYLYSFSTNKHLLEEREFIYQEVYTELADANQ
Chain of UniProt Q9NQU5 (whole entry, looked up): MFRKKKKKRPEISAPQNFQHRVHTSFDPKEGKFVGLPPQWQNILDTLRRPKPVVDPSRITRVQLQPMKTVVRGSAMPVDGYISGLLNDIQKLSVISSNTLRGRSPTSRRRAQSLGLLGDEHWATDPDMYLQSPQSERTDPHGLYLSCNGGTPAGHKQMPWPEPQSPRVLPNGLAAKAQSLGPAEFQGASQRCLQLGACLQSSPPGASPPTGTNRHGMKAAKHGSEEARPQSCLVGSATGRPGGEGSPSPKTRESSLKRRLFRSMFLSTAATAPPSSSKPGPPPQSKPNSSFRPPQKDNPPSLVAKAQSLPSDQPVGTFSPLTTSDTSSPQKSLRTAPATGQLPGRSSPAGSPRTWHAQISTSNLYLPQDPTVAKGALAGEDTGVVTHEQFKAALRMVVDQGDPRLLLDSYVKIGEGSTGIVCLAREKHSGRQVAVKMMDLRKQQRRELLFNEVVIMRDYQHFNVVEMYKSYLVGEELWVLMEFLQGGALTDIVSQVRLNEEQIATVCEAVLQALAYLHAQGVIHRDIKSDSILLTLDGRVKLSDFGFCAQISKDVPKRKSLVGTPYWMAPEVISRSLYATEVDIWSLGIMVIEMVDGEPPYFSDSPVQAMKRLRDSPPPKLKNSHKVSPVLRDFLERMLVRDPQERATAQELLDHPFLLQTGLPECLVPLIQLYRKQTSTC
Chain of UniProt P17706 (whole entry, looked up): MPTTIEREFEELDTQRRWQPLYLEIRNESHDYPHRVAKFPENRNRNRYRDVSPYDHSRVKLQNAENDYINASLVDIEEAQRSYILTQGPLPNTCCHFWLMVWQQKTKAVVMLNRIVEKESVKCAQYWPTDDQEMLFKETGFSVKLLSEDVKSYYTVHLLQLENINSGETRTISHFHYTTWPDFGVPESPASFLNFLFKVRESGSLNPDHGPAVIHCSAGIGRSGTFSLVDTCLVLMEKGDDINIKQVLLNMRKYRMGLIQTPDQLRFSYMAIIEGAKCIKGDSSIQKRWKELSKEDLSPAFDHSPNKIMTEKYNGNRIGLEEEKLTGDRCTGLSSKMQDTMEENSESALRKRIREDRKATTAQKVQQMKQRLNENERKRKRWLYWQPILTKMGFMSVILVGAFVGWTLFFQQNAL
Chain of UniProt P36507 (whole entry, looked up): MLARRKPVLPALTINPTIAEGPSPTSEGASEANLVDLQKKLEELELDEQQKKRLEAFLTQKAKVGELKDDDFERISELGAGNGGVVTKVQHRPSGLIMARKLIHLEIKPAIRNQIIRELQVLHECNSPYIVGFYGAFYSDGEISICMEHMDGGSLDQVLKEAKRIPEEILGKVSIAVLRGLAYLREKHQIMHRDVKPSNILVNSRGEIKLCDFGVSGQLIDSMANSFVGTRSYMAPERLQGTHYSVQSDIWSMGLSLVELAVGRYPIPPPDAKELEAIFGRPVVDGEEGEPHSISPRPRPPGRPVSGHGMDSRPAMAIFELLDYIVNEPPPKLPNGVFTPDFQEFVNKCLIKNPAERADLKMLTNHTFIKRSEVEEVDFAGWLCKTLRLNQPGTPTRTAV
Chain of UniProt P08172 (whole entry, looked up): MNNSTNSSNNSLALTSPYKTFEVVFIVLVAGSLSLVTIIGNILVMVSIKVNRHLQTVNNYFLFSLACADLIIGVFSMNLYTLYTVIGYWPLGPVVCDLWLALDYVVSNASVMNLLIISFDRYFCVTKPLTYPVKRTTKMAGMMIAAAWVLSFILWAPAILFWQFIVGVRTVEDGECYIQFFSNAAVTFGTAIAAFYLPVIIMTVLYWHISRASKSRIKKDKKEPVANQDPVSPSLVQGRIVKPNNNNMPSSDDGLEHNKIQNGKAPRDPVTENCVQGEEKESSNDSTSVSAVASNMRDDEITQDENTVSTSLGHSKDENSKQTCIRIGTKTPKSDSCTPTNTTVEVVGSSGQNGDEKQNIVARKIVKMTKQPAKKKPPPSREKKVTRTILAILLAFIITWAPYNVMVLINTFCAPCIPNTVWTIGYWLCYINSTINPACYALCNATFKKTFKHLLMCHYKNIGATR
Chain of UniProt O60930 (whole entry, looked up): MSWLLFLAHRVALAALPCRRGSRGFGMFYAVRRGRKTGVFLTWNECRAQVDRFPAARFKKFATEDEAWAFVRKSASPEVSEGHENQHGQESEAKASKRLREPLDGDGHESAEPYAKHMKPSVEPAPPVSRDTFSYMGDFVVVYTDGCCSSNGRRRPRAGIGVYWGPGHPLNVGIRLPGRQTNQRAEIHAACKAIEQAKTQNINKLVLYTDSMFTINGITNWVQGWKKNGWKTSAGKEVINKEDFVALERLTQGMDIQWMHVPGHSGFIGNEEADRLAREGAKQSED

SMILES	target	assay	test system	conditions	endpoint	result
Cc1c(Cc2cccc(OC(C)(C)C(=O)O)c2)c2ccc(C(=O)N[C@@H](C)c3cccc(C(C)(C)C)c3)cc2n1CC1CC1	PPARG	ligand displacement, TR-FRET	–	–	IC50	0.017 µM
CC(CCC(=O)NCCS(=O)(=O)O)C1CCC2C3C(O)CC4CC(O)CCC4(C)C3CC(O)C12C (centres unmarked)	G-protein coupled receptor 39	calcium signal, agonist, fluorescence	–	–	EC50	> 200 µM
Cc1c(Cc2cccc(OC(C)C(=O)O)c2)c2ccc(C(=O)NC(C)c3cccc(C(C)(C)C)c3)cc2n1C (mixture of isomers)	PPARG ligand-binding domain	reporter gene, luciferase reporter	HEK293T, Gal4-PPARγ LBD	–	IC50	1020 µM
O=C(NC1CCN(Cc2ccccc2)CC1)C(C(F)(F)F)C(F)(F)F	Rhomboid protease AarA	enzyme activity, inhibitor, fluorescence	–	–	IC50	29 µM
Cc1cccc2c1N(C(=O)n1ccnn1)CC2	KAI2 (Arabidopsis thaliana, UniProt Q9SZU7, I193A)	ITC	–	I193A mutant	Kd	32.8 µM and 35.2 µM and 48.8 µM
CC1(C)C[C@@H](Nc2cccc(-c3sc(C(=O)O)c(OCC(=O)O)c3Cl)c2)CCN1S(=O)(=O)Cc1cccc(NC(=O)CN2CCC(c3ccc4c(c3)oc(=O)n4C3CCC(=O)NC3=O)CC2)c1 (some centres unmarked)	PTPN2 (Homo sapiens, UniProt P17706)	degrader, HiBiT	B16-F10 cells	24 h	DC50	0.238 ± 0.031 µM
CC(CCC(=O)NCC(=O)O)C1CCC2C3C(O)CC4CC(O)CCC4(C)C3CC(O)C12C (centres unmarked)	G-protein coupled receptor 39	calcium signal, agonist, fluorescence	–	–	EC50	> 200 µM
CC1C(=O)N(S(=O)(=O)c2ccc(C#N)cc2)C1c1ccccc1 (racemic)	Rhomboid protease AarA	enzyme activity, inhibitor, fluorescence	–	–	IC50	48 µM
Cc1cc(O)c(=O)c(O)cc1C(=O)N1CCN(C(=O)c2cccc3ccccc23)CC1	Ribonuclease H1 (Homo sapiens, UniProt O60930)	enzyme activity, inhibitor, FRET cleavage	–	catalytic domain, enzyme-substrate binding	Ki	6 µM
Cc1c(Cc2cc(Cl)cc(O[C@H](C)C(=O)O)c2)c2ccc(C(=O)N[C@@H](C)c3ccc(C(C)(C)C)cc3)cc2n1CC(C)C	PPARG	ligand displacement, TR-FRET	–	–	IC50	0.107 µM
COCCOc1ccccc1NC(=O)C(C(F)(F)F)C(F)(F)F	Rhomboid protease AarA	enzyme activity, inhibitor, fluorescence	–	–	IC50	7.2 µM
Cc1c(Cc2ccc(Cl)c(O[C@@H](C)C(=O)O)c2)c2ccc(C(=O)N[C@@H](C)c3ccc(C(C)(C)C)cc3)cc2n1CC1CCC1	PPARG	ligand displacement, TR-FRET	–	–	IC50	0.00256 µM
O=C(COc1ccccc1NC(=O)C(C(F)(F)F)C(F)(F)F)NCC1CC1	Rhomboid protease AarA	enzyme activity, inhibitor, fluorescence	–	–	IC50	7.4 µM
CCc1cccc([C@H](C)NC(=O)c2ccc3c(Cc4cccc(OC(C)(C)C(=O)O)c4)c(C)n(C)c3c2)c1	PPARG	ligand displacement, TR-FRET	–	–	IC50	0.001 µM
O=C1CC(c2cccc(Br)c2)N1S(=O)(=O)c1cccc(Cl)c1 (centres unmarked)	Rhomboid protease AarA	enzyme activity, inhibitor, fluorescence	–	–	IC50	7 µM
Cc1c(Cc2cc(Cl)cc(OC(C)C(=O)O)c2)c2ccc(C(=O)NC(C)c3ccc(C(C)(C)C)cc3)cc2n1C (centres unmarked)	PPARG ligand-binding domain	reporter gene, luciferase reporter	HEK293T, Gal4-PPARγ LBD	–	IC50	0.32 µM
Cc1ccc(S(=O)(=O)N2CC(NC(=O)c3cccc(F)c3)C2=O)cc1 (centres unmarked)	Rhomboid protease AarA	enzyme activity, inhibitor, fluorescence	–	–	IC50	85 µM
Cc1c[nH]c2nccc(-c3ccc(C(=O)N[C@@H]4c5c(F)cc(C(F)F)cc5C[C@@H]4O)cn3)c12	MAP2K2 (Homo sapiens, UniProt P36507)	binding, competition with immobilised ligand	–	–	Kd	0.255 µM
C=CCn1c(=O)c2ccccc2n2c(SCC(=O)Nc3ccc(NC(C)=O)cc3)nnc12	CHRM2 (Homo sapiens, UniProt P08172)	allosteric modulator	–	–	Kb	1.41 µM
Cc1c(Cc2ccc(O[C@H](C)C(=O)O)c(Cl)c2)c2ccc(C(=O)N[C@@H](C)c3ccc(C(C)(C)C)cc3)cc2n1C	PPARG	ligand displacement, TR-FRET	–	–	IC50	0.109 µM
COc1ccc(Cn2nccc2NC(=O)C(C(F)(F)F)C(F)(F)F)cc1	Rhomboid protease AarA	enzyme activity, inhibitor, fluorescence	–	–	IC50	25 µM
CC(CCC(=O)NCC(=O)O)C1CCC2C3C(O)CC4CC(O)CCC4(C)C3CCC12C (centres unmarked)	G-protein coupled receptor 39	calcium signal, agonist, fluorescence	–	–	EC50	> 200 µM
Cc1c(Cc2cccc(OC(C(=O)O)C(C)C)c2)c2ccc(C(=O)NC(C)c3cccc(C(C)(C)C)c3)cc2n1C (mixture of isomers)	PPARG ligand-binding domain	reporter gene, luciferase reporter	HEK293T, Gal4-PPARγ LBD	–	IC50	134 µM
Nc1ncnc2c1c(-c1ccc(Oc3ccccc3)cc1)nn2C1CCCC1	SRC (Gallus gallus, UniProt P00523, G530I/P529E/Q528E)	enzyme activity, inhibitor, radiometric	–	–	Ki	< 0.02 µM
Cc1cccc(C)c1NC(=O)C(C(F)(F)F)C(F)(F)F	Rhomboid protease AarA	enzyme activity, inhibitor, fluorescence	–	–	IC50	16.7 µM
Cc1nn(-c2cccc(N)c2)c(=O)c2cnc(Nc3ccc(N4CCNCC4)cc3)nc12	PAK6 (Homo sapiens, UniProt Q9NQU5)	kinase activity, inhibitor, SelectScreen kinase profiling	–	–	IC50	> 10 µM

Some of these lines once more:
SMILES	target	assay	test system	conditions	endpoint	result
Cc1c(Cc2cccc(OC(C(=O)O)C(C)C)c2)c2ccc(C(=O)NC(C)c3cccc(C(C)(C)C)c3)cc2n1C (mixture of isomers)	PPARG ligand-binding domain	reporter gene, luciferase reporter	HEK293T, Gal4-PPARγ LBD	–	IC50	134 µM
Nc1ncnc2c1c(-c1ccc(Oc3ccccc3)cc1)nn2C1CCCC1	SRC (Gallus gallus, UniProt P00523, G530I/P529E/Q528E)	enzyme activity, inhibitor, radiometric	–	–	Ki	< 0.02 µM
Cc1cccc(C)c1NC(=O)C(C(F)(F)F)C(F)(F)F	Rhomboid protease AarA	enzyme activity, inhibitor, fluorescence	–	–	IC50	16.7 µM
